Measured values of several laboratories.
A part holds a random share of what one study measured. Positions count from the first letter of the parent shown.

Sample 1 — technique: RNA Bind-n-Seq; form: RNA; matrix: in vitro; concentration: 100 nM; reference: input RNA pool; reading: higher = stronger binding
Target: RING finger protein unkempt homolog, zinc fingers 1-6, SBP tag (UNK, Homo sapiens, UniProt Q9C0B0, residues 30-357)
UniProt Q9C0B0, sequence (30-357, looked up): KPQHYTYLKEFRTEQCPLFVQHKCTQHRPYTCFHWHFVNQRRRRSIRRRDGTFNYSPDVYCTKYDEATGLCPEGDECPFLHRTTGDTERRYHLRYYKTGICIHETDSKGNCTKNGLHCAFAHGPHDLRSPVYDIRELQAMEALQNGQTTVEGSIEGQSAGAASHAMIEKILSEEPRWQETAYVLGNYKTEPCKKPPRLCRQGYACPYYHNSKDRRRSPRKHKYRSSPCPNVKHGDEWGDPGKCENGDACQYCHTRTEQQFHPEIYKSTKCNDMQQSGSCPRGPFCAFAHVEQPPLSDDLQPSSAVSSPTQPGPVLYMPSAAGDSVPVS
Setting: RNA with constant flanks, vertebrate orthologous sites, ends assumed
Constant ends, left off below: GGGAGUUCUACAGUCCGACGAUC … CAACAGAGGAUUGAGCAUCA
| Sequence | bound/input enrichment [ratio] |
| --- | --- |
| CUCCCCUUAAUCCCAUCUCAUCUGUUUCAUAGUGCUGAAAUUCUGUCUUCAGCCUUAUUUUUAGCGAACUUAUUCUAAUUCUAGCGAAACUUCCAGUGUGGAUACUGUGAGCUAUAUGGA | 2.31 |
| UUCACUUCCAGGUUGGACCUAGUGGAAAAGUCAUAGGAAUUGACCACAUUAAAGAGCUAGUAGACGACUCAGUAAAUAAUGUCAGAAAGGAUGAUCCAAUGCUUUUGUCUUCAGGGAGAG | 0.764 |
| GUGUUUUGUACAGGGCAUUCUCUGUACUAGUUUGUUGUGGUUAUAAAACAAUUAGCAGAAUAGCCUACAUUUGUAUUUAUUUUCUAUUCCAUACUUCCGCCCACGUUGUUUUCUCUCAAA | 1.06 |
| CAGUCCUUCCACUUAGAGUUAGCCACAAAUCUGUAGGAUUUAUGACAUAUAUAUCUAGUUGAGUUUAAUAUUUUUAUUAGCCUGUAAAUAAUGAUGGCAUCUUCUACAUUAAAGUAUUGA | 2.78 |
| UUUUUUAAUUUAUUUUUCUUUCAUUUUCUUUUUUUUGGGGGUAAAGUUUGCUCUACCAAAUAGUGAUCGUAACAAACUGAUCUGUUAUGGAUGUUGCUAUAGUGACAUGCAAUUAUAUAU | 1.49 |
| UGCAUUAUUUGACAAGAGUCAAAGUGACAGAGUUUGAAGAUAUUAAAUCAGGUUACAGAAUAGAUUUUUAUUUCGAUGAAAACCCUCACUUCGAAGAUAAAGUUCUCUCCAAAGAAUUUC | 0.325 |
| GUUUUGGUUCAAAGCUUUGGGUACCAAUGCUCAUCUUCCUUUCAUUAUACCAACAAACUCUAAGUGUAGGAAUUUACUAUUUUUCAGAAGUUUUACAUUGCUGUAUAUUCAAGGAUUUCU | 0.472 |
| CUCUUAAUCCCAUCUCCUCUGUUUCAUAGUGCCGAAGUAUUCUCUUCAAGUUAAAUCUUUUUAGCGAACUUAUUCUAAUUCUAGAGAAACUUCCAAUGUGGAUACUGUGAGCUACAUGGA | 1.11 |
| GUCAUCUGACUGGAUGAAGACCGUCCCAAGUUACAACCAAACCAAUAGCUCCAUGGACUUUAGAAAUUAUAUGAUGAGAGAUGAGAACCUGGAACCGCUGCCCAAAAACUGGGAAAUGGC | 0.937 |
| UAAGAAUUGGAAGAAUUGUAUAGGAGGCAGUAGUCGAAAAGUAGAAGCAGUUUGGAAGAGUAGUUACAAAUAUCAAGAGCCAGGCGGCUAAAAGGUGGAGCUAUAGGUCAUUGAAGCUCA | 0.982 |
| AGUUUGUAUGUACAUUAUUCACAUUCCUCUCUGUUGUGUUUAGGGAAAAAAAAAGACAUUUUAGCCUUUUUUAAGGUUAUUGAUUUAAUAUUAUUUGGUUGCAUGAAGUUGCCCUUAACC | 0.562 |

Sample 2 — technique: RNA Bind-n-Seq; form: RNA; matrix: in vitro; concentration: 200 nM; setting: whole 134-nt RNA, ends assumed; added: 150 mM KCl; reference: input library; reading: higher = stronger binding
Target: Ras GTPase-activating protein-binding protein 1, full length (G3BP1, Homo sapiens, UniProt Q13283)
UniProt Q13283, sequence (whole entry, looked up): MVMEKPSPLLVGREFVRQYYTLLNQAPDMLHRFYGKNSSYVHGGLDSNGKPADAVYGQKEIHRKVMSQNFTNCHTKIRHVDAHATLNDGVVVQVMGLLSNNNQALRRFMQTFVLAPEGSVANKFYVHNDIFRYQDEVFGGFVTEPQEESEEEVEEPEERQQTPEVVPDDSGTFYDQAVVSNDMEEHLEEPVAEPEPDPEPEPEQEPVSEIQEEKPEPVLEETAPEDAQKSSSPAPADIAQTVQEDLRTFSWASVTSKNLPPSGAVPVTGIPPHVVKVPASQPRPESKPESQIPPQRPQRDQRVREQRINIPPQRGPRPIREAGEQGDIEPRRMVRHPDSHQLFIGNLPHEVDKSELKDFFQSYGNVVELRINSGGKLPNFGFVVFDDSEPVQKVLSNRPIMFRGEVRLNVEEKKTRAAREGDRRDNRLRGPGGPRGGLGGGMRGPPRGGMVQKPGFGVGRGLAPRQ
Constant ends, left off below: GGGAGUUCUACAGUCCGACGAUC … UGGAAUUCUCGGGUGUCAAGG
| Sequence | log2 enrichment |
| --- | --- |
| CCUCAAGUCCUGUGCUACACAUCGUAUGUACCGAAUCGGCCGGGCCGGCCGGAAAGUAUUAUGUUACGCCGUUCGGAUCUGCACUUCCAG | -0.265 |
| UAACUUUAGAGGAGGAUCUGAUGGAUAUGGCAGUGGACGUGGAUUUGGGCAUGGCUAUAAUGGGUAUGGAGGAGGACCUGGAGGUGGCAA | 0.169 |
| AGUCCUGUGCUACACAUCGUAUGUACCGAAUCGGGGUUUUGGGGUUUUGGUUUUGGGGAAAGUAUUAUGUUACGCCGUUCGGAUCUGCAC | -0.246 |
| CUGUGCUACACAUCGUAUGUACCGAAUCGGGGUUUUUUUGGGGAAAGGGGUUUUUUUGGGGAAAGUAUUAUGUUACGCCGUUCGGAUCUG | -0.328 |
| CACAGACAACACGCACCCACACAGACACAGAGGGAAGGGGUUGGGAUGGGGACAGGGUAAACAGCAGGGCGGGGUAGGACCCCAGCCCCU | 1.8 |
| CACAGACAACACGCACCCACACAGACACAGAGGGAAGGGGUUGGGAUGGGGACAGGGUGCACAGCAGGGCGGGGUAGGACCCCGGCCCCU | 1.91 |
| UACAGGAGCUUCCUGGGACUGACCUGCCUGAUGCAAAUUUCUACUCGGACGGAAGACUUCAUCAUUGACACCCUCGAGCUUCGAAGUGAC | 0.288 |
| AGUCCUGUGCUACACAUCGUAUGUACCGAAUCGGGUUUGGGAAAAAAAGGGUUUGGGAAAGUAUUAUGUUACGCCGUUCGGAUCUGCACU | 0.0242 |
| CUGUGCUACACAUCGUAUGUACCGAAUCAAAGUGUGUGUGUGUGUAAAGUGUGUGUGUAAAAAAGUAUUAUGUUACGCCGUUCGGAUCUG | -0.516 |
| UAACUUUAGAGGAGGAUCUGAUGGAUUUGGCAGUGGACGUGGAUUUGGGGAUGGCUAUAAUGGGUAUGGAGGAGGACCUGGAGGUGGCAA | 0.297 |
| UCCUGUGCUACACAUCGUAUGUACCGAAUCAAAGUGUGUGUGUGAAAUGUGUGUGUGAAAAAAGUAUUAUGUUACGCCGUUCGGAUCUGC | 0.0256 |
| ACCAUGCAGGUGGGCAUCUUUGGGAAGUGGGGCAAGGGGGGGAUAGGGAGGGGGGUAACACUUUGGGAACAGGUGUUCCCAGGUCGUUUC | 1.09 |
| AGUCCUGUGCUACACAUCGUAUGUACCGAAUCGGUUUUUGGUUUUUGGGGUUUUUGGAAAGUAUUAUGUUACGCCGUUCGGAUCUGCACU | -1.13 |
| UCCCAAUGCUCGGAGGAAGCCCAAGGGCAGCCCUCGUGUACCUGAUGCCAAGAAGCCUAAACCCAAGAAAGUAGCUCCCCUGAAAAUCAA | 0.763 |

Sample 3 — technique: universal PBM; form: double-stranded DNA, one strand shown; matrix: in vitro; concentration: 600 nM; reading: higher = stronger binding
Target: Sal-like protein 4, full length isoform A (SALL4, Homo sapiens, UniProt Q9UJQ4, residues 1-1053)
UniProt Q9UJQ4, sequence (whole entry, looked up): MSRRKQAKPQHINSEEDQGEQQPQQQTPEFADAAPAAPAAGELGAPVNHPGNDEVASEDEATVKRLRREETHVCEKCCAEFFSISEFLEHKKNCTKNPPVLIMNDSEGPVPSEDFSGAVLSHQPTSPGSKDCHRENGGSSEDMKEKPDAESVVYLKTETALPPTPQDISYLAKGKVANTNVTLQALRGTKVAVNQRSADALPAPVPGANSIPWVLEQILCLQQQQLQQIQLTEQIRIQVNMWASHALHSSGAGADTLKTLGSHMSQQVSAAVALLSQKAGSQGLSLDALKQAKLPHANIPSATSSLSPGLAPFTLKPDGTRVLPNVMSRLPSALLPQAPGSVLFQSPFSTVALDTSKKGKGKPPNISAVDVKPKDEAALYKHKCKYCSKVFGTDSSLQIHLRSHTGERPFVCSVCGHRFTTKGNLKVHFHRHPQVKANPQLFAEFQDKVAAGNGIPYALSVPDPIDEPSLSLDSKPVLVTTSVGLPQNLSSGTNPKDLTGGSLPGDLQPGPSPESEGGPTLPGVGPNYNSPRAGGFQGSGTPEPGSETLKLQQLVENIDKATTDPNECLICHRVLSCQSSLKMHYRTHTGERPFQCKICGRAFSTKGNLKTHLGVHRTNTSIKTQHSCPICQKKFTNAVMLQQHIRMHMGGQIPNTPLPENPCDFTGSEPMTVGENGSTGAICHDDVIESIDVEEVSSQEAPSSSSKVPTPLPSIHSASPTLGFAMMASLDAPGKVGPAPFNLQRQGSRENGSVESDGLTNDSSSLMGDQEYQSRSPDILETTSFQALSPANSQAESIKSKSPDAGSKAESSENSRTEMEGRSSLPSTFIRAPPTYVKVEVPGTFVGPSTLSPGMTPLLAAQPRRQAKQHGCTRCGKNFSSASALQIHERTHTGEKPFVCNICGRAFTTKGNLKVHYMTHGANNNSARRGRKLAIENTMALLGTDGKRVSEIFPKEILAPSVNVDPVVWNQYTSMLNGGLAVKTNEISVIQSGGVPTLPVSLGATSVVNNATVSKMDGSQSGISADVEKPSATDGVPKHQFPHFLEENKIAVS
Setting: 8-mer, flanks averaged, mean of replicates
| Sequence | E-score |
| --- | --- |
| CGTGGCCC | -0.384 |
| CTGGAAAA | 0.163 |
| CGCTGGTA | -0.0563 |
| GAACCACA | 0.0351 |
| CCGTGCGA | -0.168 |
| CCACATCC | -0.149 |
| ATCGGCAT | 0.233 |
| CGTAAAAA | 0.288 |
| CCGCTCAA | -0.101 |
| TCGTCAAA | 0.169 |
| ATACCGGC | -0.143 |
| CCACGCAA | -0.12 |
| ATACCCGA | -0.0511 |
| AAGACGTG | -0.0806 |
| TACCGACA | -0.0394 |
| ACTTTTCG | 0.0561 |
| GAAATGTA | 0.192 |
| AGACATTG | 0.0119 |
| ACCCCGTG | -0.322 |
| AGATAAGC | 0.138 |
| CCAGAGAC | -0.22 |
| CAAATTTA | 0.291 |
| ACATGTAG | 0.213 |
| AGCCAAGG | -0.128 |
| AACTAGAT | 0.21 |

Sample 4 — technique: protein binding microarray; form: double-stranded DNA, one strand shown; matrix: in vitro; concentration: not given; reference: not given; reading: higher = stronger binding
Target: Histone acetyltransferase KAT6A, both winged helices, GST fusion (KAT6A, Homo sapiens, UniProt Q92794, residues 1-181)
Setting: 8-mer, flanks averaged, mean of 2 arrays, mostly near background
Construct (chain): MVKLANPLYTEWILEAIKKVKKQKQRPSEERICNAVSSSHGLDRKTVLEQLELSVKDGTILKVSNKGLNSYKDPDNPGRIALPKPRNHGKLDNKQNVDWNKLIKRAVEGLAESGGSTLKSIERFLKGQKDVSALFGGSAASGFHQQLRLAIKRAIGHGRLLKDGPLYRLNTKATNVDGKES
| Sequence | E-score |
| --- | --- |
| ATCGGGGC | 0.145 |
| CACATGTG | 0.0614 |
| CCCGACAC | 0.0394 |
| ACCACTAC | -0.156 |
| GGAGACAC | -0.153 |
| CAAATGTG | 0.019 |
| AGTCTGGA | -0.103 |
| ATTGGATG | -0.129 |
| ACGTGCAT | -0.14 |
| GGAGGATA | -0.219 |
| AGCCCCCC | -0.296 |
| CGCGTCGC | 0.356 |
| ATATAGAT | -0.0457 |
| CGTTTAAC | 0.0696 |
| GTTTGAAA | -0.0355 |
| GGCGGAGA | 0.216 |
| ACTCGGCA | 0.115 |
| AGGGTTTA | -0.127 |
| CTGTTGCC | -0.115 |

Sample 5 — target: CCNA2, cyclin fold, Cln2 fusion (human); technique: yeast growth competition, sequencing; matrix: yeast; setting: strong parent motif; reference: not given; reading: higher = stronger binding
Parent: BRCA2 docking peptide (human); PSIKRNLLNEFDR
| Substitution | normalised enrichment score |
| --- | --- |
| N9E | 5.66 |
| R5I | 1.42 |
| D12P | 3.93 |
| R5G | -0.961 |
| K4Q | 2.9 |
| S2A | 4.59 |
| P1I | 4.88 |
| P1W | 6.06 |
| N9M | 5.79 |
| L7M | 1.1 |
| L7N | -0.88 |
| K4W | 1.22 |
| D12A | 5.54 |
| K4M | 2.31 |
| I3P | 3.23 |
| L8M | 5.98 |
| L8A | 4.2 |
| I3M | 3.7 |
| N6S | 5.32 |
| K4D | 0.517 |
| R5F | -0.0347 |
| K4I | 2.62 |
| D12V | 4.9 |
| E10D | 5.81 |
| N9S | 5.37 |
